# Published values from different studies.
# A part holds a random share of what one study measured. Substitutions count along the parent as printed.
# Chain of UniProt O75116 (whole entry, looked up): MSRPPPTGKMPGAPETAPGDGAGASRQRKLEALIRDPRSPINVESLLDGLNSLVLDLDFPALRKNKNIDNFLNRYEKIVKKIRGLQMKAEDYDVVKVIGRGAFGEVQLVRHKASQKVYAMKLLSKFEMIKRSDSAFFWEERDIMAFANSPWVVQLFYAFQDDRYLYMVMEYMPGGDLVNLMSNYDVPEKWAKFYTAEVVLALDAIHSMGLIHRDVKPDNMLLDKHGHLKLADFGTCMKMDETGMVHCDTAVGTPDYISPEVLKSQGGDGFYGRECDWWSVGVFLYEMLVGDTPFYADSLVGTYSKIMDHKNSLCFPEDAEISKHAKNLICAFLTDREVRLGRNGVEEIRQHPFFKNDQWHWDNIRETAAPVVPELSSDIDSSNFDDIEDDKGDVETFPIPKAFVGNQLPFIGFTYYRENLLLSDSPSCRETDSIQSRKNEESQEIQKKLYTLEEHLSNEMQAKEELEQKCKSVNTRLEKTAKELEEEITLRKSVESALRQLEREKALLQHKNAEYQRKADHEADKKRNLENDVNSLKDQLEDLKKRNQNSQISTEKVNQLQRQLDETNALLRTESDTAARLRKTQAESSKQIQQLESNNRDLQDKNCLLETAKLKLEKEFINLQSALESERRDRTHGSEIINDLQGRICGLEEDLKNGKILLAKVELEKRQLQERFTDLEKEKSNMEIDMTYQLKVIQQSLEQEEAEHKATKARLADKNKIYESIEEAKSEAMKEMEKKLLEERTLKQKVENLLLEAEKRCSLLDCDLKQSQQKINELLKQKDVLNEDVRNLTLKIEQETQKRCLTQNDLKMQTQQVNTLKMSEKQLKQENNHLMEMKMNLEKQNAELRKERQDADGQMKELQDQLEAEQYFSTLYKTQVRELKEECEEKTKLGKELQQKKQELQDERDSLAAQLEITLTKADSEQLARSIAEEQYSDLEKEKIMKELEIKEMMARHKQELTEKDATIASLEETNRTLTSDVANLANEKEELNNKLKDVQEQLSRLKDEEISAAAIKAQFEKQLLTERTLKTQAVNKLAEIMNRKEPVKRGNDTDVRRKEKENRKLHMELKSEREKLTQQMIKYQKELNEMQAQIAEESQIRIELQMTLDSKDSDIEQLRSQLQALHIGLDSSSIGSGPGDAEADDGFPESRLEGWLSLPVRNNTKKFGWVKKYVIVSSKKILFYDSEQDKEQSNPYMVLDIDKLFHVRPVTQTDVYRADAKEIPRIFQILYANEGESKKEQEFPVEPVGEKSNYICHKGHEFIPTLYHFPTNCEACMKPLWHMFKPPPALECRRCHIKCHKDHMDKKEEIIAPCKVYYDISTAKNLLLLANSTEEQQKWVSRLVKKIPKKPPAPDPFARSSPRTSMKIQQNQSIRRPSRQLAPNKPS

# Block 1
# Target: PABPC1L2, full length, GST fusion (mouse, UniProt A0ABA7IW68)
# Technique: RNAcompete
# Form: RNA
# Matrix: in vitro
# Tested at: 20 nM
# Setting: 7-mer, probes averaged, single round
# Relative to: mean of 7-mers
# Reading: higher = stronger binding
# Residues (chain): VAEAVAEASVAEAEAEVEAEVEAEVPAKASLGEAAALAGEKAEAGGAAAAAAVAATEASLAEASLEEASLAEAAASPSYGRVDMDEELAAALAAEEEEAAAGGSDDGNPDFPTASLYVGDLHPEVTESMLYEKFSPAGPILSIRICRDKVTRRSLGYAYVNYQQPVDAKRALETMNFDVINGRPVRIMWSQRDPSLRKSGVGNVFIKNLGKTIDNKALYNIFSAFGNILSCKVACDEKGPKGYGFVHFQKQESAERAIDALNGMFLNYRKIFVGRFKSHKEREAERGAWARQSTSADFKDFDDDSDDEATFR
Sequence,7-mer Z-score
UCAUGUC,-0.307
ACUGACG,-0.164
AUCGACC,-0.0917
CUAUUAU,-0.233
GAUAGUU,-0.324
UGCGCUG,-0.103
CUAAAAC,1.72
GGCUCAU,0.0497

# Block 2
# Target: CCNE1, cyclin fold, Cln2 fusion (human)
# Technique: yeast growth competition, sequencing
# Matrix: yeast
# Setting: strong parent motif
# Relative to: not given
# Reading: higher = stronger binding
# Starting sequence: SCAPER docking peptide (human); SNARRSLNFGGST
Change,normalised enrichment score
SNALRSLNFGGST [R4L],-0.395
SNARRSLVFGGST [N8V],0.379
SNARRSLNDGGST [F9D],0.324
SNARRSANFGGST [L7A],0.685
SNARWSLNFGGST [R5W],0.154
SNARRSLNFGGSP [T13P],1.8
SNARRNLNFGGST [S6N],0.73
SNARRSLKFGGST [N8K],1.21

# Block 3
# Target: Histone acetyltransferase KAT6A, winged helix 2, GST fusion (KAT6A, Homo sapiens, UniProt Q92794, residues 85-181)
# Technique: protein binding microarray
# Form: double-stranded DNA, one strand shown
# Matrix: in vitro
# Tested at: not given
# Setting: 8-mer, flanks averaged, mean of 2 arrays, mostly near background
# Relative to: not given
# Reading: higher = stronger binding
# Construct (chain): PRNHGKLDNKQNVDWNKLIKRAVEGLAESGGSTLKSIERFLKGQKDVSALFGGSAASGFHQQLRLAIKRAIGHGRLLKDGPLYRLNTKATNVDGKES
Sequence,E-score
ATGCTCGA,0.0727
AATTATGT,-0.0835
CGATACCA,0.064
AGCCCACG,0.0838
GCCTTTAC,-0.0707
GGGTACAA,-0.0389
CTCTGACC,-0.0526
GGATTCCA,0.00984

# Further values, each from its own experiment
Compound,target,assay,conditions,how to read,endpoint,value
CN(C)CCCn1cc(C2=C(c3c[nH]c4ccccc34)C(=O)NC2=O)c2ccccc21,"Rho-associated protein kinase 2 (ROCK2, Homo sapiens, UniProt O75116)","enzyme activity, inhibitor",0.5 µM,relative to: control,remaining activity,113%

# Excerpt of the above (further values, each from its own experiment):
Compound,target,assay,conditions,how to read,endpoint,value
CN(C)CCCn1cc(C2=C(c3c[nH]c4ccccc34)C(=O)NC2=O)c2ccccc21,"Rho-associated protein kinase 2 (ROCK2, Homo sapiens, UniProt O75116)","enzyme activity, inhibitor",0.5 µM,relative to: control,remaining activity,113%
